# Measured values from different studies.
# ± marks the error that the study gave.
# SPT10: SPT10 283-640 (Saccharomyces cerevisiae, UniProt P35208)
# Chain of UniProt Q8K3Y3 (whole entry, looked up): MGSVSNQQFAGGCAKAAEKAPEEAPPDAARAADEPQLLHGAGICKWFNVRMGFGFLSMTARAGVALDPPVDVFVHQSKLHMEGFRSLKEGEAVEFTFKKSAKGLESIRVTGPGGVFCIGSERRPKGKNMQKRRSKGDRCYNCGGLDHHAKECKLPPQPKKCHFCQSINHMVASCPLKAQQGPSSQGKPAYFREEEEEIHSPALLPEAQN
# Chain of UniProt P35208 (whole entry, looked up): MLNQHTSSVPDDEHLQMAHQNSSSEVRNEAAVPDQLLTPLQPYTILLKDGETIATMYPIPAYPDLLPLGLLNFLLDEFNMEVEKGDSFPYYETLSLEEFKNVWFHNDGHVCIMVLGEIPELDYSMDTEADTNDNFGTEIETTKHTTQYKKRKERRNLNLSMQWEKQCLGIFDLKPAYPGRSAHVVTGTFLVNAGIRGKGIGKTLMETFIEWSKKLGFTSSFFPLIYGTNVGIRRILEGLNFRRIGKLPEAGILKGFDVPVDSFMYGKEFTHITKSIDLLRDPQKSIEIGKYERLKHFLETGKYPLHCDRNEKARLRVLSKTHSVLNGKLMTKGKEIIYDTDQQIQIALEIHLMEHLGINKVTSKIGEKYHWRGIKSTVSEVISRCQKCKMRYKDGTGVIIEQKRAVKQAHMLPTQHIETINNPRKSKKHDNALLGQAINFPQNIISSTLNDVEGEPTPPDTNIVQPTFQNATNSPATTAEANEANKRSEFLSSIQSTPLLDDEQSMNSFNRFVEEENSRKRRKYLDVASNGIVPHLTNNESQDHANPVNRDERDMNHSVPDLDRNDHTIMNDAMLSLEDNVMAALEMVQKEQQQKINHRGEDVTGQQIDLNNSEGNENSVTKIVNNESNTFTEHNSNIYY
# Chain of UniProt P50534 (whole entry, unmodified, looked up): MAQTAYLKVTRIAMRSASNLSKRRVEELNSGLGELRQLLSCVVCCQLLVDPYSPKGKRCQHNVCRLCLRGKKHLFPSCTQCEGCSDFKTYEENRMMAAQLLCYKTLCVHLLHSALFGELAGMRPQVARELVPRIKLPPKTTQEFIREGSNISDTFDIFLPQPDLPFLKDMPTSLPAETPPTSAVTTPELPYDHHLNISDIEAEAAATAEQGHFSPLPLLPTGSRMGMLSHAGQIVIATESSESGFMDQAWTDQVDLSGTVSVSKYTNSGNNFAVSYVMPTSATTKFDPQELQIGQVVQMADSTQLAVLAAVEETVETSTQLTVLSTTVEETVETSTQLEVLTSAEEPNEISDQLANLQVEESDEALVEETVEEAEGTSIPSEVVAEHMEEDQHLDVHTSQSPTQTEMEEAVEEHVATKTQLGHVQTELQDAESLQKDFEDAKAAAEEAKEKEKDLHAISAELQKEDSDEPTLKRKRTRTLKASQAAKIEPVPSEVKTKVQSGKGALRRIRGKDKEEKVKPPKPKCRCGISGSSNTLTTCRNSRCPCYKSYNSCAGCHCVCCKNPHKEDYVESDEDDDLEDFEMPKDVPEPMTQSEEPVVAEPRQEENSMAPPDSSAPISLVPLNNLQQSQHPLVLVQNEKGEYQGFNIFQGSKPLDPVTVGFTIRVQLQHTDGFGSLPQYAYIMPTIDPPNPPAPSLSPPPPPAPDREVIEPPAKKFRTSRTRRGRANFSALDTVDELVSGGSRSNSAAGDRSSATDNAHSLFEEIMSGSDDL
# Chain of UniProt P20366 (whole entry, looked up): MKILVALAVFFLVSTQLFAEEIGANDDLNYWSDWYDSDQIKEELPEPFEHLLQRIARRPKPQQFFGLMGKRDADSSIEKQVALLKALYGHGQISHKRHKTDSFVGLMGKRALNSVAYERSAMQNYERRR
# Chain of UniProt Q9UIF7 (whole entry, looked up): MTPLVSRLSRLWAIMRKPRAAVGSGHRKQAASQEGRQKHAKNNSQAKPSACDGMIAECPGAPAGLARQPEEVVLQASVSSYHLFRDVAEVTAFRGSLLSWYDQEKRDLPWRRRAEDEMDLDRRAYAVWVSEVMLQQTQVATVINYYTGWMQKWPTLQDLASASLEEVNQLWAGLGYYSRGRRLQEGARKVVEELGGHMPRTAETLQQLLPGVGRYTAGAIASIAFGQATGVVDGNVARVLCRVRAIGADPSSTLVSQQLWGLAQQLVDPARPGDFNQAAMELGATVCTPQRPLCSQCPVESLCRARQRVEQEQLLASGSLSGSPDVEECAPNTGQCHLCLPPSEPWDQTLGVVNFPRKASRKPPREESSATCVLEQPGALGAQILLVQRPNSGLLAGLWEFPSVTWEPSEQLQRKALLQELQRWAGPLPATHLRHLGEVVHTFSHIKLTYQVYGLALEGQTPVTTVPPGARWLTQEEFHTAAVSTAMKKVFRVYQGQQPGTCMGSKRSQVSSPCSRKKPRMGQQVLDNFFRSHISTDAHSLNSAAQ
# Chain of UniProt Q6PI48 (whole entry, looked up): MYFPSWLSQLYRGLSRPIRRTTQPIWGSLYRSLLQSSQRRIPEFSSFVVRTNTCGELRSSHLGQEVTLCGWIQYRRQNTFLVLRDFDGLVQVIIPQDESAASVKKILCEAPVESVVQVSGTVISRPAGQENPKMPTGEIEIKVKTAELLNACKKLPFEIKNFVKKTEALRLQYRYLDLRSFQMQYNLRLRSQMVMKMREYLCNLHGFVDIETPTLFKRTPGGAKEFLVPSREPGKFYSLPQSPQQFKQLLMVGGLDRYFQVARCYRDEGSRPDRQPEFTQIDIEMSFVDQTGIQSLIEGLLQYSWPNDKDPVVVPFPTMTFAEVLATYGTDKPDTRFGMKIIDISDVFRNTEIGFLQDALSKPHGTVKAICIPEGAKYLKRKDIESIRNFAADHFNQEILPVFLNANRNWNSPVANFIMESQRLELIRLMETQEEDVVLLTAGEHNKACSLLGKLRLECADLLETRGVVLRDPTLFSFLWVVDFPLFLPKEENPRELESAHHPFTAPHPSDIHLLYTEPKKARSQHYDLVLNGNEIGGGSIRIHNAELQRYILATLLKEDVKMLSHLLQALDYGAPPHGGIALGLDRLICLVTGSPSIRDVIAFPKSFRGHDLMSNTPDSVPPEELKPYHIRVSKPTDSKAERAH
# Chain of UniProt Q15717 (whole entry, looked up): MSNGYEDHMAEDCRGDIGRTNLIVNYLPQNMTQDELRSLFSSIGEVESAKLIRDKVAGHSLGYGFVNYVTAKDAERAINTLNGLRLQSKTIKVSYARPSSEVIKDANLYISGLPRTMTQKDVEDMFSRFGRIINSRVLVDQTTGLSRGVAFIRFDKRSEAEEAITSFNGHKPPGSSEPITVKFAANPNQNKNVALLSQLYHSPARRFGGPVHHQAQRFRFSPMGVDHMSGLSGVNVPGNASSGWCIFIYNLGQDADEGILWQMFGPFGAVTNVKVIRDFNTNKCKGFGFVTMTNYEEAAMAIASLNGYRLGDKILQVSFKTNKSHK
# Chain of UniProt Q9QX72 (whole entry, looked up): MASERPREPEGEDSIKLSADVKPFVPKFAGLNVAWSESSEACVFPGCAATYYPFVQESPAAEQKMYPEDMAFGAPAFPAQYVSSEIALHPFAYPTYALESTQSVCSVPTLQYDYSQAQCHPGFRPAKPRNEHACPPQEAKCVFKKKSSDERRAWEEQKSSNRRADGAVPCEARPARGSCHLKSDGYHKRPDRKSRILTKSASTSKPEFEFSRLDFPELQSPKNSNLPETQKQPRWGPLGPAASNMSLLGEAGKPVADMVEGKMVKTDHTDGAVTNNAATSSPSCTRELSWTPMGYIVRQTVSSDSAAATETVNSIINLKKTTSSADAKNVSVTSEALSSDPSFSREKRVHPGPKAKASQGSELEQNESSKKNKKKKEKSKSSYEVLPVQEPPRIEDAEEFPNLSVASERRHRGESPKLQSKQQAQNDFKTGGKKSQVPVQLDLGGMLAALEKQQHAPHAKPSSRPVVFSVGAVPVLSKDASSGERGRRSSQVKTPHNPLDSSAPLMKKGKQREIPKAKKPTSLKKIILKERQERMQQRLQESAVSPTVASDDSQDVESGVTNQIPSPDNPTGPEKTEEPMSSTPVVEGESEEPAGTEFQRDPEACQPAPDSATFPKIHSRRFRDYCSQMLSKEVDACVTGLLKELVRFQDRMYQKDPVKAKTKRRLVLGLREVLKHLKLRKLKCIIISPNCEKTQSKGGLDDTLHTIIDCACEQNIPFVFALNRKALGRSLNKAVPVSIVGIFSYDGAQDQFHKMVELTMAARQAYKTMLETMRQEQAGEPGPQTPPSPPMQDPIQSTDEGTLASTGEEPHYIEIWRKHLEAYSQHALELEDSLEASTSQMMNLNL
# Chain of UniProt Q9NWB1 (whole entry, looked up): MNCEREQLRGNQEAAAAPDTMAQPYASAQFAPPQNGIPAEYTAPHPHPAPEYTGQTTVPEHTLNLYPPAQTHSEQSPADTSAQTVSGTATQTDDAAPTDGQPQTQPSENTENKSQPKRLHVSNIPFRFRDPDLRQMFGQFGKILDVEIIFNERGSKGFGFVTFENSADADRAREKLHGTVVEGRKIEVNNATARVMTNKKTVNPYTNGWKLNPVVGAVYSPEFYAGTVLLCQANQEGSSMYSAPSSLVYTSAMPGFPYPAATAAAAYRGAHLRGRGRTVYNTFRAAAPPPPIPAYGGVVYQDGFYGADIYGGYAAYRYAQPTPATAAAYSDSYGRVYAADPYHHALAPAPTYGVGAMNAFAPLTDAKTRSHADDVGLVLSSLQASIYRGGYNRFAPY
# Chain of UniProt Q97ZE3 (whole entry, looked up): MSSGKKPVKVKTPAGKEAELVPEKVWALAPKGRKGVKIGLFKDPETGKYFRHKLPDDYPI
Strand,target,assay,test system,conditions,Kd [nM]
GATCCCCCAATGCTTCGTTTCGTATCACACACCCCAAAGCCTTCTGCTTTGAATGCTGCC (dsDNA; 60 bp duplex),"creN7 1-60 (Saccharolobus solfataricus, UniProt Q97ZE3)",EMSA,"double-stranded DNA, one strand shown",apparent,113
GCAGAUUGAGGGUCUAUGAUACCAACCGGUACAGGAGAUAUCUGCA (structured RNA),"Lin28a 119-180 (Mus musculus, UniProt Q8K3Y3)",EMSA,folded RNA,,2.1 ± 0.5
"GGGACGCGUGGUACCAGGCCGAUCUAUGGACGCUAUAGGCACACCGGAUACUUUAACGAUUGGCUAAGCUUCCGCGGGGAUC (structured RNA; stem-loops, bulges, tri-bridged)","ELAVL1 full length assumed (Homo sapiens, UniProt Q15717)",SPR,folded RNA,,1570
AAGGUAUUAGAAAAACCAUUUCAUAACUUUGUCAAAGUUAAAUUAUAGGCUAAAUCCUAUAUAUCUUACCA (tRNA (Homo sapiens)),"DARS2 41-645 (Homo sapiens, UniProt Q6PI48)",ITC,folded RNA,,260 ± 180
CATTAGCGCTGTTCCAAAATTTTCGCCTCACTGTGCGAAGCTATTGGAATGGAGTGTATT (dsDNA),SPT10,EMSA,"double-stranded DNA, one strand shown",,67 ± 19
GCAGAUUGAGGGUCUAUGAUACCACCCGGUACAGGAGAUAUCUGCA (structured RNA),"Lin28a 1-209 (Mus musculus, UniProt Q8K3Y3)",EMSA,folded RNA,Hill fit,0.13 ± 0.02
UAGCUUAUCAGACUGAUGUUGACUGUUGCAUGUCAUGGCAACACCAGUCGAUGGGCUGU (structured RNA),"RBFOX1 109-208 (Homo sapiens, UniProt Q9NWB1)",ITC,folded RNA,,252 ± 43
"CCUGCCAGCCGCCCUGGCCCUGGUCACUGCAUGAUCCGCUCUGGUCAAACCCUUCCAGGCCAGCCAGAGUGGGGAUGGUCUGUGACCUGCUGGGAAGGCAGGC (structured RNA (human); stem-loop, kink-turn)","Secisbp2 517-777 (Rattus norvegicus, UniProt Q9QX72)",EMSA,,"apparent, together with: tRNA competitor",8
"CGGAAUCAGUGAAUGCUUAUACAUCCG (ssRNA; single strand, 2'-F pyrimidines, 2'-OMe purines)",VEGFA residues 27-191 (Homo sapiens),ELONA,modified nucleic acid,,0.016 ± 0.003
GTGTGGGTGTG (ssDNA),"CDC13 1-924 F539A (Saccharomyces cerevisiae, UniProt P32797)",filter binding,single-stranded DNA,KCl 750 mM,12 ± 2
"GGCGCAGGUGGGUAAAGGGGUGUGAUCGAGGGUCGAGAGGCGCC (L-RNA; mirror-image, 44 nt)",substance P residues 58-68 (UniProt P20366),ITC,,37 °C,40
GCAGAUUGAGGGUCUAUGCUACCACCCGGUACAGGAGAUAUCUGCA (structured RNA),"Lin28a 119-180 (Mus musculus, UniProt Q8K3Y3)",EMSA,folded RNA,,1.6 ± 0.6
"GCTGAGCTTCTGGTGAAGCTCAGCTCGCGGCAGCTGGTGCTGCCGCGA (dsDNA; dumbbell, central nick, 5' phosphate)",PARP2 NTR 1-78 (Homo sapiens),fluorescence polarization,folded DNA,,994
TGCGGCCAAAAAATTCGTTTTGATGTTTCT (dsDNA),"msl-2 1-773 (Drosophila melanogaster, UniProt P50534)",EMSA,"double-stranded DNA, one strand shown",,87 ± 15
GCAGAUUGACGAUCUAUGAUACCACCCGGUACAGGAGAUAUCUGCA (structured RNA),"Lin28a 119-180 (Mus musculus, UniProt Q8K3Y3)",EMSA,folded RNA,,18 ± 5
GCTGAGCTTCTGGTGAAGCTCAGCTCGCGGCAGCTGGTGCTGCCGCG (dsDNA; 5' phosphate),PARP2 NTR 1-78 (Homo sapiens),fluorescence polarization,folded DNA,,1060
GCAGAUUGACGGUCUAUGAUACCACCCGGUACAGGAGAUAUCUGCA (structured RNA),"Lin28a 119-180 (Mus musculus, UniProt Q8K3Y3)",EMSA,folded RNA,,9 ± 2
GAGCGAGA (dsDNA),"msl-2 520-570 C560G (Drosophila melanogaster, UniProt P50534)",NMR titration,"double-stranded DNA, one strand shown",apparent,31000
GCCTCACTGTGCGAAGCTATTGGAATGGAGTGTA (dsDNA),SPT10,EMSA,"double-stranded DNA, one strand shown",,99 ± 4
GCAGAUUGAGGGUCUAUGCUACCACCCGGUACAAAAGAUAUCUGCA (structured RNA),"Lin28a 119-180 (Mus musculus, UniProt Q8K3Y3)",EMSA,folded RNA,,8 ± 2
"DNA 1 GTCGTGGACTAGGCAAAGAACTTATAGAGCCACTTGAGCACACAGAGG / DNA 2 CTAGTCCACGACTTTTTTTT (dsDNA; 8-oxoG opposite A, three-strand assembly)","MUTYH full length assumed (Homo sapiens, UniProt Q9UIF7)",SPR,double-stranded DNA,,6.2
